Results from different studies.
Each line is one published result; not all experiments were run side by side. ± marks the error that the study gave.
Technique: steady-state kinetics
B1: enzyme Y24A (Nitrosopumilus maritimus, UniProt A9A5X4); chain MDSQKFDSIIFDCDGVLVDITQSADKTIDKTCRYVLKEFAKIDSITIDHKIIDGFKSSGGFNDEVDLVYAAILSLYTANKLNKKPSEFIYDVISNTDKTGIRSVQSYLESIYDVSEFLSKLGSLGDRHNNPVYSIFDQFFFGPELYGKLFDKQSKFSEEGMISNDKVILSVSLLETLQKEFGKKIAVVTGRGIESIRYSLKDMMDYFDTKNSAFLEDEPRELAKPNPATLIRAIQSMESKNCLYVGDSMEDYMMAKDAAQAGHSTTFCAIVGTSTNPEDRRKLFADSGVEMILESINDIPKVLNLV
B2: enzyme S252E (Schizosaccharomyces pombe, UniProt P78804); chain MSTPYEPEFQQAYKEIVGSIESSKLFEVHPELKRVLPIISIPERVLEFRVTWEDDKGNCRVNTGYRVQFNSALGPYKGGLRFHPSVNLSILKFLGFEQIFKNALTGLPMGGGKGGSDFDPKGKSDNEIRRFSQAFMRQLFRYIGPQTDVPAGDIGVTGFVVMHMFGEYKRLRNEYSGVVTGKHMLTGGSNIRPEATGYGVVYYVKHMIEHRTKGAETLKGKRVAISGSGNVAQYAALKCIQEGAIVKSISDEKGVLIAKTAEGLVPEEIHEIMALKEKRASIADSASLCKKHHYIAGARPWTNVGEIDIALPCATQNEVSGEEAAALIKQGCRYVAEGSNMGSSAEAVEVFEKSRASGEGCWLAPGKAANAGGVAVSGLEMAQNAQFSTWTHAEVDAKLAGIMQNIFEQSTDVASKYCDSGSNNIPSLVDGANIAGFLKVATAMQAVGDWW
B3: enzyme W53F (Thermoplasma volcanium, UniProt Q978S7); chain MAFHGLVKYSDITVEGYPKIQYHGFIGNNRTAMLVAMNGYIDFGCLPNFNSNAVFSSILDKNKGGYFAIFPSDTTDVYVDQYYKEMTNVLVTEFVKNGKIILRLTDFMPDSEYGKISFPEVHRFVESFSEPIDITIDFKPTFNYGQDKPIIEKDQHGFIFTTDKESIGISSEFPLRKNSDRIFGNVKMEPRSSSWIIALYGIHHLFRTTDYKSYLRLQETTDYWRKWASSSSYAGAYHSMVMRSALALKVLFYEPTGLMVAAPTASLPEAIGGERNWDYRFTWIRDTAYVIEALSSIGYKYEATEFLYDMMDMITRDNRIRTIYSIDDSNDLEERIIDYEGYRGSRPVRIGNKAVDQLQIDQYGSIVRAIHSMAKAGGIVNSYLWDFVEQVMAKIEYLWKYPDSSIWEFRTEPKQYVYSKVMSWAAFDSAISMAKDLGLSAPIKQWKSIQDEIKKEVLEKGFDTDTNSFVQYYGSKNIDAALLRLPILGFIPANDEKFLGTLSRIEKELMVDGYLFKRYREDDGLKGDEGSFLMLTFWYIEDLILMKRLKKAREVLESVLEKANHLGLYSEEIDEKSGDFLGNFPQALSHLGVIRVAPKLEEALLKRTSKINS
B4: aspC A106G/A17N/A218G/A278L/A281T/A8Q/D18E/F210I/F212I/F350Y/G15S/G249S/I187A/I279A/I29V/I33V/I341V/I5L/I68L/I71L/L46M/M321L/M380L/N285S/N30D/N64T/S129T/S135A/S273G/S351L/T100S/V125I/V136I/V375I/Y244C (Escherichia coli, UniProt P00509); chain MFENLTAQPADPILSLNELFRADERPGKVDLGVGVYKDETGKTPVMTSVKKAEQYLLENETTKTYLGLDGLPEFGRCTQELLFGKGSALINDKRARTAQSPGGTGGLRVAADFLAKNTSVKRVWISNPTWPNHKAIFNSAGLEVREYAYYDAENHTLDFDALINSLNEAQAGDVVLFHGCCHNPTGADPTLEQWQTLAQLSVEKGWLPLIDIAYQGFGRGLEEDAEGLRAFAAMHKELIVASSCSKNFSLYNERVGACTLVAADSETVDRAFGQMKALARTNYSSPPAHGASVVATILSNDALRAIWEQELTDMRQRIQRLRQLFVNTLQEKGANRDFSFVIKQNGMFSYLGLTKEQVLRLREEFGVYAVASGRINVAGLTPDNMAPLCEAIVAVL
B5: pdc (Zymomonas mobilis, UniProt P06672); chain MSYTVGTYLAERLVQIGLKHHFAVAGDYNLVLLDNLLLNKNMEQVYCCNELNCGFSAEGYARAKGAAAAVVTYSVGALSAFDAIGGAYAENLPVILISGAPNNNDHAAGHVLHHALGKTDYHYQLEMAKNITAAAEAIYTPEEAPAKIDHVIKTALREKKPVYLEIACNIASMPCAAPGPASALFNDEASDEASLNAAVEETLKFIANRDKVAVLVGSKLRAAGAEEAAVKFADALGGAVATMAAAKSFFPEENPHYIGTSWGEVSYPGVEKTMKEADAVIALAPVFNDYSTTGWTDIPDPKKLVLAEPRSVVVNGIRFPSVHLKDYLTRLAQKVSKKTGALDFFKSLNAGELKKAAPADPSAPLVNAEIARQVEALLTPNTTVIAETGDSWFNAQRMKLPNGARVEYEMQWGHIGWSVPAAFGYAVGAPERRNILMVGDGSFQLTAQEVAQMVRLKLPVIIFLINNYGYTIEVMIHDGPYNNIKNWDYAGLMEVFNGNGGYDSGAGKGLKAKTGGELAEAIKVALANTDGPTLIECFIGREDCTEELVKWGKRVAAANSRKPVNKLL
B6: enzyme H130A (Salinispora arenicola, UniProt A8M783); chain MASTPWISFTTDYGLADGFVAACHGVLARLAPTARVIDVTHLVPPGDVRRGAAVLAQTVPYLPAAVHVAVVDPGVGTARRAIALTAGNGLLVGPDNGLLLDAATALGGVDAAVELTNPDWLGARMSATFAGRDVFAPVAARLALGAPLADAGPAVEPGALVRLPTPLVQPETDGFTAEVLTVDHFGNVQLAATGALLESLPRSLRVAHRPAVHARTFDDAPPGGLLVHVDSAGLVAVAVNGGRAADLLAVTPGDQLRVTAG
B7: enzyme (Arabidopsis thaliana, UniProt Q9LY48); chain MNIFQDWPEPIVRVQSLSESNLGAIPNRYVKPLSQRPNITPHNKHNPQTTTIPIIDLGRLYTDDLTLQAKTLDEISKACRELGFFQVVNHGMSPQLMDQAKATWREFFNLPMELKNMHANSPKTYEGYGSRLGVEKGAILDWSDYYYLHYQPSSLKDYTKWPSLPLHCREILEDYCKEMVKLCENLMKILSKNLGLQEDRLQNAFGGKEESGGCLRVNYYPKCPQPELTLGISPHSDPGGLTILLPDEQVASLQVRGSDDAWITVEPAPHAFIVNMGDQIQMLSNSIYKSVEHRVIVNPENERLSLAFFYNPKGNVPIEPLKELVTVDSPALYSSTTYDRYRQFIRTQGPRSKCHIDELKSPR
B8: ftsZ (Caulobacter crescentus, UniProt B8H080); chain MAISLSAPRTTELKPRIVVFGVGGAGGNAVNNMIEAGLEGVEFVVANTDAQQLQFAKTDRRIQLGVQITQGLGAGAHPEVGMSAAEESFPEIGEHLDGAHMVFITAGMGGGTGTGAAPIIAKCARERGILTVGVVTKPFHFEGRHRMRLADSGIQELQRYVDTLIVIPNQNLFRVANERTTFAEAFGMADQVLHSGVRSITDLMVLPGLINLDFADVRTVMTEMGKAMMGTGEGTGEDRALMAAQNAIANPLLDEVSLKGAKAVLVNVTGGMDMTLLEVDEAANAISDQVDPEANIIFGAAFDPSLEGVIRVSVVATGMDGASIAQIEPKPVSRNISAAPLIAETSRPAPQPEPARPTARYEAARPAERPVAFAPEPAPEPEIVMSAPQPEPEAELYYDEPTVAEEPRVSAAPARSVNRIVDPLVDDVAEEPLFPENNYYEERRPQKQGGFFSMFGGGRQRYEQQASAPQAQARSAQSARPQLQPIETPQADDAEDLEIPSFLRRLAN
B9: PYCR2 R119C (Homo sapiens, UniProt Q96C36); chain MSVGFIGAGQLAYALARGFTAAGILSAHKIIASSPEMNLPTVSALRKMGVNLTRSNKETVKHSDVLFLAVKPHIIPFILDEIGADVQARHIVVSCAAGVTISSVEKKLMAFQPAPKVICCMTNTPVVVQEGATVYATGTHALVEDGQLLEQLMSSVGFCTEVEEDLIDAVTGLSGSGPAYAFMALDALADGGVKMGLPRRLAIQLGAQALLGAAKMLLDSEQHPCQLKDNVCSPGGATIHALHFLESGGFRSLLINAVEASCIRTRELQSMADQEKISPAALKKTLLDRVKLESPTVSTLTPSSPGKLLTRSLALGGKKD
B10: SCO6712 S292F (Streptomyces coelicolor, UniProt Q9XAL8); chain AKGITARTAPAGGEVRHLKMYAEKLADGQMGYGFEKGKASVPGPLIEVNEGDTLHIEFTNTMDVRASLHVHGLDYEISSDGTAMNKSDVEPGGTRTYTWRTHKPGRRDDGTWRPGSAGYWHYHDHVVGTEHGTGGIRNGLYGPVIVRRKGDVLPDATHTIVFNDMTINNRKPHTGPDFEATVGDRVEIVMITHGEYYHTFHMHGHRWADNRTGILTGPDDPSRVIDNKITGPADSFGFQIIAGEGVGAGAWMYHCHVQFHSDMGMVGLFLVKKPDGTIPGYEPHEHGGATAKSGESGEPTGGAAAHEHEH
B11: enzyme (Homo sapiens, UniProt P50583); chain ALRACGLIIFRRCLIPKVDNNAIEFLLLQASDGIHHWTPPKGHVEPGEDDLETALRETQEEAGIEAGQLTIIEGFKRELNYVARNKPKTVIYWLAEVKDYDVEIRLSHEHQAYRWLGLEEACQLAQFKEMKAALQEGHQFLCSIEA
B12: enzyme (Rhodopseudomonas palustris, UniProt Q6N7F5); chain MSNTHPAVAAIEDYADVLARFRREDLEALFDGNFATGINVCIECCDRHVAGGGTALDWESQDGRTASFSFAEMKDYAARVANLLVAQGVKPGDVVAGMLPRTPELLALILGTWRAGAVYQPLFTAFGPKAIEHRVKMSAAKLVVTDLANRAKLADVADCPTVAIVLRPGETAPLGDLDFHAEIAAQSTEFAPVLRKGTDLFLMMSTSGTTGLPKGVPVPINALPAFYSYIRDAVDLRAGDIFWNIADPGWAYGLYYAVTGPLLHGHATTFYDGPFTAESTYGLIKRRGITNLAGAPTAYRLLIAAGPEAAAPVKGQLRVVSSAGEPLNPEVIRWFAEHLAAPIHDHYGQTELGMVVNNHHRLRHTVHPGSAGLAMPGFRVAVLDEHSNELPPNVPGVLSVDLKRSPLMWFSGYWQQETPAIEGGYYRTGDTVELEPDGSISFVGRADDVITSSGYRIGPFDVESALIEHAAVIEAAVIGKPDPERTEIVKAYVVLAKDVTPSEALAEELRQYVKKRLSAHAYPREIEFLEQLPKTPSGKLQRFILRKRDTEPAGTTQGSSSAA
Sequence of UniProt P0A7B5 (whole entry, looked up): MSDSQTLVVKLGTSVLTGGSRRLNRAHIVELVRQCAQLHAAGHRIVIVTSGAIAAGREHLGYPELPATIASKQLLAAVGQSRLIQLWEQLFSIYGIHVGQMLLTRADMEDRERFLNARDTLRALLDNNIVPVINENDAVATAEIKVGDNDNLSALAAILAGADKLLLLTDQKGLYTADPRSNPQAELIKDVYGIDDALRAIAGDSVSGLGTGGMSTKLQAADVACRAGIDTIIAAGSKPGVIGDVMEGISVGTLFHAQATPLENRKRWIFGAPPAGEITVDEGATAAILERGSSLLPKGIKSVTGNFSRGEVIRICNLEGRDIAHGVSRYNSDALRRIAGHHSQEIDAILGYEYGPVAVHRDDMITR

Substance	substrate	pH	temperature	setting	with	kcat
enzyme (Salvia miltiorrhiza, UniProt G3DSC6)	O=C(/C=C/c1ccc(O)cc1)O[C@H](Cc1ccc(O)c(O)c1)C(=O)O	pH 7.5	30 °C	not purified	–	0.00383 s⁻¹
B1 (enzyme Y24A)	N[C@H](COP(=O)(O)O)Cc1c[nH]cn1	pH 7.8	25 °C	–	–	0.01 ± 0.001 s⁻¹
HNL E79H/K236M/T11G (Hevea brasiliensis)	CC(=O)Oc1ccc([N+](=O)[O-])cc1	pH 7.2	22 °C	–	–	0.0055 ± 0.000333 s⁻¹
B2 (enzyme S252E)	NC(=O)C1=CN([C@@H]2O[C@H](COP(=O)(O)OP(=O)(O)OC[C@H]3O[C@@H](n4cnc5c(N)ncnc54)[C@H](OP(=O)(O)O)[C@@H]3O)[C@@H](O)[C@H]2O)C=CC1	pH 7	30 °C	apparent	–	46 ± 2 s⁻¹
proB (Escherichia coli, UniProt P0A7B5)	N[C@@H](CCC(=O)O)C(=O)O	pH 7	30 °C	Hill coefficient, apparent	10 mM ATP	5.8 ± 2 s⁻¹
B3 (enzyme W53F)	OC[C@H]1O[C@H](O[C@H]2O[C@H](CO)[C@@H](O)[C@H](O)[C@H]2O)[C@H](O)[C@@H](O)[C@@H]1O	pH 3.7	30 °C	–	–	21.7 ± 0.1 s⁻¹
B4	O=C(O)C(=O)Cc1ccccc1	pH 7.5	25 °C	–	PMP 20 µM, ammonium acetate 10 mM	0.21 s⁻¹
B5 (pdc)	CC(=O)C(=O)O	pH 6	30 °C	–	–	150 ± 5 s⁻¹
B6 (enzyme H130A)	C[S+](CC[C@H](N)C(=O)O)C[C@H]1O[C@@H](n2cnc3c(N)ncnc32)[C@H](O)[C@@H]1O	pH 7.9	37 °C	apparent	1-200 µM SAM	0.00267 ± 0.000167 s⁻¹
B7 (enzyme)	CC/C=C\C[C@@H]1C(=O)CC[C@@H]1CC(=O)O	pH 7.5	20 °C	–	–	0.0315 s⁻¹
B8 (ftsZ)	Nc1nc2c(ncn2[C@@H]2O[C@H](COP(=O)(O)OP(=O)(O)OP(=O)(O)O)[C@@H](O)[C@H]2O)c(=O)[nH]1	–	–	–	–	0.0667 ± 0.00833 s⁻¹
enzyme (Bacteroides fragilis, UniProt Q5LAD6)	C[C@@H]1O[C@@H](Oc2ccc([N+](=O)[O-])cc2Cl)[C@@H](O)[C@H](O)[C@@H]1O	pH 8.4	40 °C	–	–	134 s⁻¹
B9 (PYCR2 R119C)	NC(=O)C1=CN([C@@H]2O[C@H](COP(=O)(O)OP(=O)(O)OC[C@H]3O[C@@H](n4cnc5c(N)ncnc54)[C@H](O)[C@@H]3O)[C@@H](O)[C@H]2O)C=CC1	pH 7.5	37 °C	apparent, cofactor varied	DL-P5C 5000 µM	0.015 ± 0.001 s⁻¹
B10 (SCO6712 S292F)	CCn1c(=NN=c2sc3cc(S(=O)(=O)O)ccc3n2CC)sc2cc(S(=O)(=O)O)ccc21	pH 7	37 °C	NaCl 150 mM	O2 cosubstrate	1.7 ± 0.1 s⁻¹
B11 (enzyme)	Nc1ncnc2c1ncn2[C@@H]1O[C@H](COP(=O)(O)OP(=O)(O)OP(=O)(O)OP(=O)(O)OP(=O)(O)OC[C@H]2O[C@@H](n3cnc4c(N)ncnc43)[C@H](O)[C@@H]2O)[C@@H](O)[C@H]1O	–	–	–	Mg2+	0.47 ± 0.2 s⁻¹
B12 (enzyme)	CC(C)C(=O)O	pH 7.5	37 °C	–	–	3.01 ± 0.87 s⁻¹

For quick reference, copied from above:
Substance	substrate	pH	temperature	setting	with	kcat
B6 (enzyme H130A)	C[S+](CC[C@H](N)C(=O)O)C[C@H]1O[C@@H](n2cnc3c(N)ncnc32)[C@H](O)[C@@H]1O	pH 7.9	37 °C	apparent	1-200 µM SAM	0.00267 ± 0.000167 s⁻¹
